# Experimental data gathered from unrelated publications.
# Numbered parts are unrelated; each lists some results of a single study.
# UniProt P42336, sequence (whole entry, unmodified, looked up): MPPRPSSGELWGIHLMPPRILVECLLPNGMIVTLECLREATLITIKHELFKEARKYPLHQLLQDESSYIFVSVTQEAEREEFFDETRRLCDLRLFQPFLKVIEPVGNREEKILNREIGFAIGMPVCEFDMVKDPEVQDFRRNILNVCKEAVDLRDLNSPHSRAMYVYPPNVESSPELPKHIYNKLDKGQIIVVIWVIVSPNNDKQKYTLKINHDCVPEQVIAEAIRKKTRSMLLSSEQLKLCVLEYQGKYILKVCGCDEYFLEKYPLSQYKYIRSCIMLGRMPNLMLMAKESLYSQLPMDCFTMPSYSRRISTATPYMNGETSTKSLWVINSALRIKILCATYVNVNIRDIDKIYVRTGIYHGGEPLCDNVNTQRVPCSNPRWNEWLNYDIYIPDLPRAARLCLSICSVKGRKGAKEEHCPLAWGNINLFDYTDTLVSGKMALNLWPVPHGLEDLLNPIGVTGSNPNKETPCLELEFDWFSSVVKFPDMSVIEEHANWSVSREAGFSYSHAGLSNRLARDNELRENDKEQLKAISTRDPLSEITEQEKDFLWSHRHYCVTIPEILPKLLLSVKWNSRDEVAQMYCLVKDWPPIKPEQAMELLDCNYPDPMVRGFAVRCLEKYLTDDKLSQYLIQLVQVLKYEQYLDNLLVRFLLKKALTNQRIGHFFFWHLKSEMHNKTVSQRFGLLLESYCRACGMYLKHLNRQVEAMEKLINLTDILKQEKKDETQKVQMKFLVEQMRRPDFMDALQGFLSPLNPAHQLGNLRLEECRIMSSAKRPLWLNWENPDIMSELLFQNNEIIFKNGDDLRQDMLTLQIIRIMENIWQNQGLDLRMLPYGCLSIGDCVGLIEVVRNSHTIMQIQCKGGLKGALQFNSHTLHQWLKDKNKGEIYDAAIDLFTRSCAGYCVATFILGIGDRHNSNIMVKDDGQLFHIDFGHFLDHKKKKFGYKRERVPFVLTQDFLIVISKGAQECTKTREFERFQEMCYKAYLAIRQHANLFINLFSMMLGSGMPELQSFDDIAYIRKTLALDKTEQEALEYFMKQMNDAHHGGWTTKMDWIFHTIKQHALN
# UniProt P30291, sequence (whole entry, looked up): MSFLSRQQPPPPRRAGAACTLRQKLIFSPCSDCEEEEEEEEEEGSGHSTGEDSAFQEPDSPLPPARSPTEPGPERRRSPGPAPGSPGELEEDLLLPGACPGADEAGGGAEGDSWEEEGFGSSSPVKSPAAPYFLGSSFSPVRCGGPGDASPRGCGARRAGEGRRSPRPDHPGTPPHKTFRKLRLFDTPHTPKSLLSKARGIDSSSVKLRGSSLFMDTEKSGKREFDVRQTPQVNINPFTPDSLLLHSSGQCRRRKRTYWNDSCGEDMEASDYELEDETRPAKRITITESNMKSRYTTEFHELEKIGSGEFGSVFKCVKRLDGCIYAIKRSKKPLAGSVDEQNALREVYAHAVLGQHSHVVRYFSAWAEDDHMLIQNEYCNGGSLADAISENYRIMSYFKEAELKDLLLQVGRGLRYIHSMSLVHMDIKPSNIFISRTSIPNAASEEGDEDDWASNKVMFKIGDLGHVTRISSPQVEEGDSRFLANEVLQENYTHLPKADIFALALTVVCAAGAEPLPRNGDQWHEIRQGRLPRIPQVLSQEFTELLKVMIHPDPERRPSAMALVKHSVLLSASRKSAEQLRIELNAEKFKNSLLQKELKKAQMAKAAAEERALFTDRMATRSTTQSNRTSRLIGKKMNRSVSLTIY
# UniProt Q9UQB9, sequence (whole entry, looked up): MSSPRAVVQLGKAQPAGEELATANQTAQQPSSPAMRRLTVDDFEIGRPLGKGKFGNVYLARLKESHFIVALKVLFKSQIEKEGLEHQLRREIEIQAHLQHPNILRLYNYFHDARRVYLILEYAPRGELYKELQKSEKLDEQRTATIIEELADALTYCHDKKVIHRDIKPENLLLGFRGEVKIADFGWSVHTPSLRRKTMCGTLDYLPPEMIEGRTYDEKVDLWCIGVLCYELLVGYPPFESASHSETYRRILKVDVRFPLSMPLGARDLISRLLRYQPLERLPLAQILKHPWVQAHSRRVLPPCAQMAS
# UniProt Q86YV6, sequence (whole entry, looked up): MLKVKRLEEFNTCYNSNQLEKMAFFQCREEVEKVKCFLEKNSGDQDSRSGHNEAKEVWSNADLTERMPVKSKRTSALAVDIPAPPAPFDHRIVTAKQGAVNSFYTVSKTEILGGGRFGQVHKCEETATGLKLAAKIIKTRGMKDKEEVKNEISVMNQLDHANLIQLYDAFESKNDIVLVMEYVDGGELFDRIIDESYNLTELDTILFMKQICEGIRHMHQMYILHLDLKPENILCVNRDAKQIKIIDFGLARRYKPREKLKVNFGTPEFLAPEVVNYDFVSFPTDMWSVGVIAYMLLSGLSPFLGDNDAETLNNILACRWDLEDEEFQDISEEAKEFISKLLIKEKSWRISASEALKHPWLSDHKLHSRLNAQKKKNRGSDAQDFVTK
# UniProt Q12851, sequence (whole entry, looked up): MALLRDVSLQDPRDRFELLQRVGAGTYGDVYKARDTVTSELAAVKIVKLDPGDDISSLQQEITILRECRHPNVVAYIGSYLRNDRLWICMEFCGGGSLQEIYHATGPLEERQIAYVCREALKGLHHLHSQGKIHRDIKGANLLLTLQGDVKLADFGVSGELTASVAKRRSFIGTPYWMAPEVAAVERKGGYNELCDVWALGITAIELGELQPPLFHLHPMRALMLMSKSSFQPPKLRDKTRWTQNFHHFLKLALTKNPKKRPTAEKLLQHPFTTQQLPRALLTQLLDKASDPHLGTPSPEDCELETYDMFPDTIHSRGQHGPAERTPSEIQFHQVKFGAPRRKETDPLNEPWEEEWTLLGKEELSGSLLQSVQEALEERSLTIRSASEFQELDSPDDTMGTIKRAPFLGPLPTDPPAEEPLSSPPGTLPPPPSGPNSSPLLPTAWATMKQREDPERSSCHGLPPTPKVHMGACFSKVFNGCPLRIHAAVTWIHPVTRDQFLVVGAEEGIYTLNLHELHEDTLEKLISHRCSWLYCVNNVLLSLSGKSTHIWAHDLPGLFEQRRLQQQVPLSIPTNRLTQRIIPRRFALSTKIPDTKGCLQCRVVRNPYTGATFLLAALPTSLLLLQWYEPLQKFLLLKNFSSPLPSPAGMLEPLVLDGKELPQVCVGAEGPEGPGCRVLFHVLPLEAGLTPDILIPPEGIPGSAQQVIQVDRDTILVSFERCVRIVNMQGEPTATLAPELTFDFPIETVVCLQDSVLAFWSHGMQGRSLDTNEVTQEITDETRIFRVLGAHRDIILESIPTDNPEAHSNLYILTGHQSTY
# UniProt Q02750, sequence (whole entry, looked up): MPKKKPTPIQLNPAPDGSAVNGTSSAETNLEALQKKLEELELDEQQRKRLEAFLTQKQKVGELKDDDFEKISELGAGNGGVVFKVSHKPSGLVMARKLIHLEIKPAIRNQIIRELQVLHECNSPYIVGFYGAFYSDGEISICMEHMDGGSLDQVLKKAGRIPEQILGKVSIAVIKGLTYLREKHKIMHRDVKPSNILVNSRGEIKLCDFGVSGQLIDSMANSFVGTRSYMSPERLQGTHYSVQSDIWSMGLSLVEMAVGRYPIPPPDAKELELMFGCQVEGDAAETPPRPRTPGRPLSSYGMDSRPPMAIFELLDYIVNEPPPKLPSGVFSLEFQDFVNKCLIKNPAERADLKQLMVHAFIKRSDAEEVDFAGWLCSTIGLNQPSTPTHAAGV

# Series 1
# Target: Serine/threonine-protein kinase Nek7 (NEK7, Homo sapiens, UniProt Q8TDX7)
# Read-out: enzyme activity
# Action: inhibitor
# Tested at: 0.5 µM
# Reference: control
# Target sequence (Q8TDX7 1-302): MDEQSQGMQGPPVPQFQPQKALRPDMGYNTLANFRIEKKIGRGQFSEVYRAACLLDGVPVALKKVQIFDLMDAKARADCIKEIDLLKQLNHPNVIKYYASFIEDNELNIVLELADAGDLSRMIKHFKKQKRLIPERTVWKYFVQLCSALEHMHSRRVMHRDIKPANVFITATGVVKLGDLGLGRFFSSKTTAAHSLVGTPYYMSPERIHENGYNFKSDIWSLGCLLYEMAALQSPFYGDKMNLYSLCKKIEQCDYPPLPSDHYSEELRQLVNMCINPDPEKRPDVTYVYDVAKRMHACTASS
SMILES,remaining activity [%]
Ic1cccc(CSc2nnc(-c3ccncc3)o2)c1,102
c1ccc(-c2[nH]ncc2-c2ccnc3ccccc23)nc1,102
c1ccc(-c2cnc(Nc3ccc(OCCN4CCCC4)cc3)s2)cc1,100
CCN(CC)C(=O)c1ccc(Nc2nc(OCC3CCCCC3)c3[nH]cnc3n2)cc1,103
Cc1cn(-c2cc(NC(=O)c3ccc(C)c(Nc4nccc(-c5cccnc5)n4)c3)cc(C(F)(F)F)c2)cn1,95.5
O=C(NC(NC(=S)Nc1ccc(F)c([N+](=O)[O-])c1)C(Cl)(Cl)Cl)C(c1ccccc1)c1ccccc1 (stereo not shown),102
CCN(CC)CCNC(=O)c1c(C)[nH]c(/C=C2\C(=O)Nc3ccc(F)cc32)c1C,93.5
N#Cc1c(NC(=O)c2cccc3ccccc23)sc2c1CCCC2,89.2
N#C/C(=C\c1ccc(O)c(O)c1)C(=O)NCc1ccccc1,111
Nc1cccc(-c2cc3c(Oc4cccc(O)c4)ncnc3[nH]2)c1,99.4
CN([C@@H](Cc1ccc(OS(=O)(=O)c2cccc3cnccc23)cc1)C(=O)N1CCN(c2ccccc2)CC1)S(=O)(=O)c1cccc2cnccc12,93.3
CCN(CC)CCNC(=O)c1c(C)[nH]c(/C=C2\C(=O)Nc3ccc(Cl)cc32)c1C,99.3
COc1cc2c(cc1OC)-c1[nH]nc(Nc3cccc(F)c3)c1C2,100
O=C1c2ccccc2-c2n[nH]c3cccc1c23,103
O=C1C(Cl)=C(N2C(=O)CCC2=O)C(=O)c2ccccc21,95.4
COc1cc2ncnc(Nc3cccc(Cl)c3)c2cc1OC,99
O=c1cc(-c2cccc3c2Sc2ccccc2S3)oc(N2CCOCC2)c1,105
Cc1cc2ncc(-c3ccccc3)nc2cc1C,102
O=C(Nc1cccc(Nc2nccc(Nc3cccc(C(F)(F)F)c3)n2)c1)C1CC1,116
Cc1nc2cc3nc(-c4cccs4)cnc3cc2n1C,86.5
CCOc1nc(NC(=O)Cc2cc(OC)ccc2OC)cc(N)c1C#N,93.5
COc1cc2ncnc(Nc3ccc(O)c(Br)c3)c2cc1OC,101
Cn1nc2c3c(cccc31)C(=O)c1ccccc1-2,93.1
CN(C)C[C@H]1CCn2c(c(C3=C(c4cn(C)c5ccccc45)C(=O)NC3=O)c3ccccc32)C1,100

# Series 2
# SMILES: CN(C)C(=O)Cn1cc(-c2nc(C3(c4ccc(-c5cnc(N)nc5)cc4)CC3)no2)cn1
# Tested at: 1 µM
target,read-out,method,remaining binding [%]
"Aurora kinase C (AURKC, Homo sapiens, UniProt Q9UQB9)",cell-free assay,competition with immobilised ligand,100
"WEE1 (Homo sapiens, UniProt P30291)",cell-free assay,competition with immobilised ligand,87
"CDK19 (Homo sapiens, UniProt Q9BWU1)",,competition binding,93
"Receptor-type tyrosine-protein kinase FLT3, autoinhibited (FLT3, Homo sapiens, UniProt P36888)",cell-free assay,competition with immobilised ligand,81
"DYRK1B (Homo sapiens, UniProt Q9Y463)",cell-free assay,competition with immobilised ligand,66
"STK36 (Homo sapiens, UniProt Q9NRP7)",cell-free assay,competition with immobilised ligand,75
"MAP4K2 (Homo sapiens, UniProt Q12851)",cell-free assay,competition with immobilised ligand,89
"MAP2K1 (Homo sapiens, UniProt Q02750)",cell-free assay,competition with immobilised ligand,82
"CSNK1D (Homo sapiens, UniProt P48730)",cell-free assay,competition with immobilised ligand,100
"MYLK4 (Homo sapiens, UniProt Q86YV6)",cell-free assay,competition with immobilised ligand,100
"EGFR (Homo sapiens, UniProt P00533, del747-750/T751S)",cell-free assay,competition with immobilised ligand,100
"STK11 (Homo sapiens, UniProt Q15831)",cell-free assay,competition with immobilised ligand,100
"NEK5 (Homo sapiens, UniProt Q6P3R8)",cell-free assay,competition with immobilised ligand,89
"MAPK11 (Homo sapiens, UniProt Q15759)",cell-free assay,competition with immobilised ligand,86
"PIK3CA (Homo sapiens, UniProt P42336, E542K)",cell-free assay,competition with immobilised ligand,76
"PIK3CA (Homo sapiens, UniProt P42336, Q546K)",cell-free assay,competition with immobilised ligand,100
"MAP2K4 (Homo sapiens, UniProt P45985)",cell-free assay,competition with immobilised ligand,93
"MYLK2 (Homo sapiens, UniProt Q9H1R3)",cell-free assay,competition with immobilised ligand,90
"MAP3K6 (Homo sapiens, UniProt O95382)",cell-free assay,competition with immobilised ligand,78
"MKNK2 (Homo sapiens, UniProt Q9HBH9)",cell-free assay,competition with immobilised ligand,94

# Series 3
# SMILES: COc1cc(C(=O)N2CCC(N3CCN(C)CC3)CC2)ccc1Nc1ncc2c(n1)N(C)c1ccccc1C(=O)N2C
# Method: KINOMEscan
# Tested at: 10 µM
# Reference: DMSO control
# Direction: lower = stronger binding
target,binding
PIP5K1A,90%
TRPM6,100%
IRAK4,83%
PIP5K2C,40%
NEK7,100%
NEK5,100%
CSNK1G1,100%
CLK2,72%
RET,100%
MEK6,83%
TIE1,100%
TGFBR2,100%
TNK2,18%
DCAMKL3,90%
PRKG2,74%
CDK9,100%
EIF2AK1,100%

# Series 4
# Target: Calcium/calmodulin-dependent protein kinase type II subunit alpha (CAMK2A, Homo sapiens, UniProt Q9UQM7)
# UniProt Q9UQM7, sequence (whole entry, looked up): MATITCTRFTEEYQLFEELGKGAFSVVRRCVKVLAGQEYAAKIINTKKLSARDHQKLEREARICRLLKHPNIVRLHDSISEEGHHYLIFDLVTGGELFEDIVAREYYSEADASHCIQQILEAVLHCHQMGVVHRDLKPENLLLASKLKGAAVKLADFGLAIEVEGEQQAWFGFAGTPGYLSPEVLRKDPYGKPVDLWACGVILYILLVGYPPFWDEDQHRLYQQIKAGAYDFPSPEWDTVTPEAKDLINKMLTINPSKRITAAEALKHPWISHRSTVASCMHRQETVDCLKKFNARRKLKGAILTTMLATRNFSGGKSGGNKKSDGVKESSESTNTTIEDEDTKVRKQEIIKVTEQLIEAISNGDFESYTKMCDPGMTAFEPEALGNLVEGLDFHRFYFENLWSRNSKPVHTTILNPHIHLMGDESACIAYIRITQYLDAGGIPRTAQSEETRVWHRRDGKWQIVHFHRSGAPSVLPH
# Read-out: enzyme activity
# Action: inhibitor
# Tested at: 10 µM
SMILES,inhibition
COc1cc(C(=O)NS(=O)(=O)c2ccccc2C)ccc1Cc1cn(C)c2ccc(NC(=O)OC3CCCC3)cc12,-3%
C/C=C/c1cc(OC)c2c(c1)C(C)C(c1ccc(O)c(OC)c1)O2 (stereo not shown),26%
COc1cc2nc(N3CCN(C(=O)C4COc5ccccc5O4)CC3)nc(N)c2cc1OC (stereo not shown),5%
C[C@@H]1O[C@@H](OC[C@H]2O[C@@H](Oc3cc(O)c4c(c3)O[C@H](c3ccc(O)c(O)c3)CC4=O)[C@H](O)[C@@H](O)[C@@H]2O)[C@H](O)[C@H](O)[C@H]1O,-6%
C[C@H](CC[C@@]1(O)O[C@H]2C[C@H]3[C@@H]4CC=C5C[C@@H](O[C@@H]6O[C@H](CO)[C@@H](O)[C@H](O[C@@H]7O[C@H](CO)[C@@H](O)[C@H](O)[C@H]7O)[C@H]6O[C@@H]6O[C@@H](C)[C@H](O)[C@@H](O)[C@H]6O)CC[C@]5(C)[C@H]4CC[C@]3(C)[C@H]2[C@@H]1C)CO[C@@H]1O[C@H](CO)[C@@H](O)[C@H](O)[C@H]1O,-14%
CN(C)CCc1c[nH]c2ccc(Cn3cncn3)cc12,2%
C[C@@H]1O[C@@H](Oc2cc(O)c3c(=O)c(O)c(-c4ccc(O)cc4)oc3c2O)[C@H](O)[C@H](O)[C@H]1O,17%
Cc1cc(-n2c(=O)[nH]c(=O)n(C)c2=O)ccc1Oc1ccc(SC(F)(F)F)cc1,-9%
CCCCCCCCCCCCCCCc1cc(O)cc(O)c1,-3%
O=C(O)CCc1ccc(O)cc1O,28%
N#Cc1cc(-c2n[nH]c(-c3ccncc3)n2)ccn1,1%
CC(/C=C/C(=O)NO)=C\[C@@H](C)C(=O)c1ccc(N(C)C)cc1,14%
C[C@@H]1CC[C@@]2(OC1)O[C@H]1C[C@H]3[C@@H]4CC=C5C[C@@H](O)CC[C@]5(C)[C@H]4CC[C@]3(C)[C@H]1[C@@H]2C,-41%
CN(C)CCOC1=Cc2ccccc2Sc2ccc(Cl)cc21,-7%
O=C(O)[C@H](O)Cc1ccc(O)c(O)c1,12%

# Some of these lines once more (series 4):
SMILES,inhibition
C[C@@H]1O[C@@H](Oc2cc(O)c3c(=O)c(O)c(-c4ccc(O)cc4)oc3c2O)[C@H](O)[C@H](O)[C@H]1O,17%
C[C@@H]1O[C@@H](OC[C@H]2O[C@@H](Oc3cc(O)c4c(c3)O[C@H](c3ccc(O)c(O)c3)CC4=O)[C@H](O)[C@@H](O)[C@@H]2O)[C@H](O)[C@H](O)[C@H]1O,-6%
CN(C)CCc1c[nH]c2ccc(Cn3cncn3)cc12,2%
CN(C)CCOC1=Cc2ccccc2Sc2ccc(Cl)cc21,-7%
O=C(O)[C@H](O)Cc1ccc(O)c(O)c1,12%
CC(/C=C/C(=O)NO)=C\[C@@H](C)C(=O)c1ccc(N(C)C)cc1,14%
C[C@H](CC[C@@]1(O)O[C@H]2C[C@H]3[C@@H]4CC=C5C[C@@H](O[C@@H]6O[C@H](CO)[C@@H](O)[C@H](O[C@@H]7O[C@H](CO)[C@@H](O)[C@H](O)[C@H]7O)[C@H]6O[C@@H]6O[C@@H](C)[C@H](O)[C@@H](O)[C@H]6O)CC[C@]5(C)[C@H]4CC[C@]3(C)[C@H]2[C@@H]1C)CO[C@@H]1O[C@H](CO)[C@@H](O)[C@H](O)[C@H]1O,-14%
COc1cc2nc(N3CCN(C(=O)C4COc5ccccc5O4)CC3)nc(N)c2cc1OC (stereo not shown),5%
Cc1cc(-n2c(=O)[nH]c(=O)n(C)c2=O)ccc1Oc1ccc(SC(F)(F)F)cc1,-9%
C[C@@H]1CC[C@@]2(OC1)O[C@H]1C[C@H]3[C@@H]4CC=C5C[C@@H](O)CC[C@]5(C)[C@H]4CC[C@]3(C)[C@H]1[C@@H]2C,-41%
O=C(O)CCc1ccc(O)cc1O,28%
